Assay results pooled from the literature.
Each line is one published result; not all experiments were run side by side. Several values in a cell are separate wells, animals, samples, runs or records. Numbers after ± are the reported error.

Structure (SMILES)	cell line	test	setting	how to read	IC50
CC12CCC(CC1=O)C2(C)C (centres unmarked)	GES1	cell growth or viability, SRB	72 h	–	202 µM
C[C@]1([N+](=O)[O-])C(=O)c2ccccc2O[C@@H]1CC(=O)Nc1nccs1	DU-145	cell growth or viability, SRB	96 h	–	49.2 µM
CC1(C)C2CCC(CN=C(N)CSS(=O)(=O)O)C1C2 (centres unmarked)	HEK-293T	qRT-PCR, measured: HTATSF1 mRNA	5 h	–	~75 µM
C[C@]1([N+](=O)[O-])C(=O)c2ccccc2O[C@@H]1CC(=O)NC1CCCCC1	DU-145	cell growth or viability, SRB	96 h	–	5.09 µM
CCC[C@H](NC(=O)c1ccc(CCCc2cc3c(=O)[nH]c(N)nc3[nH]2)s1)C(=O)O	KB cells	cell growth	with: folic acid 200 nM	–	> 1 µM
Nc1ccn([C@@H]2O[C@H](CO)[C@@H](O)C2(F)F)c(=O)n1	MIA PaCa-2 with ENG siRNA	–	48 h, with: ENG siRNA 2 for 24 h	–	0.02 µM
CNC(=O)C[C@H]1Oc2ccccc2C(=O)[C@]1(C)[N+](=O)[O-]	DU-145	cell growth or viability, SRB	96 h	–	24.7 µM
COc1ccccc1CNC1=NS(=O)(=O)c2cc(Br)ccc2N1	MDA-MB-468	cell growth or viability, MTS	72 h	–	13.6 µM
COc1ccc(N2CCN(CC(=O)Nc3ccc(C4=NN(C(C)=O)C(c5ccc(Cl)cc5Cl)C4)cc3)CC2)cc1 (centres unmarked)	HCT-116, PC-3, MCF7, MDA-MB-231 average	MTT	–	–	53 µM
CC(C)C[C@H](NC(=O)[C@H](Cc1ccccc1)NC(=O)c1cnccn1)B(O)O	WSUDLCL2	proteasome β5 activity, inhibitor, Proteasome-Glo β5	1 h	–	0.0027 ± 0.00026 µM
CC(NC1=NS(=O)(=O)c2ccccc2N1)c1ccccc1 (centres unmarked)	MDA-MB-468	cell growth or viability, MTS	72 h	–	12.4 µM
c1ccc(P(=NCc2ccccn2)(c2ccccc2)c2ccccc2)cc1	HEK-293T	cell growth or viability, MTT	74 h	–	> 100 µM
O=C1NC(=O)[C@@H](c2cn3c4c(cccc24)CCC3)[C@@H]1c1c[nH]c2ccccc12	MDA-MB-435, c-MET negative	cell proliferation, MTT	72 h, not reached at top dose	–	> 10 µM
CC(=O)OC[C@H]1O[C@@H]([S-])[C@H](OC(C)=O)[C@@H](OC(C)=O)[C@@H]1OC(C)=O.CCP(CC)CC.[Au+]	ULTR cells	–	–	–	0.19 µM
CC(C)=CCc1cc2c(C)cc(=O)oc2c(C)c1O	PAM212	cell growth	4 to 5 days, with: UVA 1.28 J/cm^2	–	1 µM
CNC(=O)c1cc(Oc2ccc(NC(=O)Nc3ccc(Cl)c(C(F)(F)F)c3)cc2)ccn1	MHCC97H	cell growth or viability, MTT	–	–	1 µM
O=S1(=O)N=C(NCCc2ccc(F)cc2)Nc2ccc(Br)cc21	MDA-MB-468	cell growth or viability, MTS	72 h	–	20.1 µM
COc1cccc2cc(C=C3C(=O)Nc4ccccc43)c(Cl)nc12	A2780	cytotoxicity, MTT	72 h	–	31.9 µM
CO[C@H]1C[C@@H]2CC[C@@H](C)[C@@](O)(O2)C(=O)C(=O)N2CCCC[C@H]2C(=O)O[C@H]([C@H](C)C[C@@H]2CC[C@@H](OCCO)[C@H](OC)C2)CC(=O)[C@H](C)/C=C(\C)[C@@H](O)[C@@H](OC)C(=O)[C@H](C)C[C@H](C)/C=C/C=C/C=C/1C	human astrocytes	C3 secretion, ELISA	with: stimulated PBMC supernatant	–	0.919 µM
COc1cc(-c2nc3ccc(C(=O)Nc4ccc(C)cc4)cc3[nH]2)cc(OC)c1OC	MRC5	cell growth or viability, MTT	72 h	–	15 µM
COc1cc(/C=C/C(O)=C/C(=O)/C=C/c2ccc(OC(C)=O)c(OC)c2)ccc1O	mouse Peritoneal macrophage	IL-6 release, inhibitor, ELISA	LPS-stimulated	–	2.21 µM
C[C@]1([N+](=O)[O-])C(=O)c2ccccc2O[C@@H]1CC(N)=O	DU-145	cell growth or viability, SRB	96 h	–	46.2 µM
N#Cc1cnc2cnc(NCc3cccnc3)cc2c1Nc1ccc(F)c(Cl)c1	HeLa expressing Ub(G76V)-GFP	Ub(G76V)-GFP degradation, inhibitor, cycloheximide chase	–	–	~10 µM
N=C(N)NCCC[C@H](NC(=O)[C@H](CCCNC(=N)N)NC(=O)[C@H](Cc1c[nH]c2ccccc12)NC(=O)[C@H](CCC(N)=O)NC(=O)[C@H](Cc1c[nH]c2ccccc12)NC(=O)[C@H](CCCNC(=N)N)NC(=O)[C@H](Cc1c[nH]c2ccccc12)NC(=O)[C@H](CCC(N)=O)NC(=O)[C@H](Cc1c[nH]c2ccccc12)NC(=O)[C@@H](N)CCCNC(=N)N)C(N)=O	primary fibroblasts	cell viability, MTT	2 h	–	> 122 µM
Cc1c2cnccc2c(C)c2c1c1ccccc1n2CCNCc1ccccc1	MDA-MB-468	cytotoxicity, MTT	3 h exposure, 96 h total	–	1.4 ± 0.29 µM
CC(C)C[C@H](NC(=O)[C@H](CCc1ccccc1)NC(=O)CN1CCOCC1)C(=O)N[C@@H](Cc1ccccc1)C(=O)N[C@@H](CC(C)C)C(=O)[C@@]1(C)CO1	human astrocytes	C3 secretion, ELISA	with: stimulated PBMC supernatant	–	< 0.025 µM
O=C1c2ccccc2-c2nc3nnnn3nc21	HeLa expressing Ub(G76V)-GFP	Ub(G76V)-GFP degradation, inhibitor, cycloheximide chase	–	–	0.52 ± 0.12 µM

Structure (SMILES)	cell line	test	setting	how to read	IC50
CC(C)=CCOc1ccc2c(C)cc(=O)oc2c1I	PAM212	cell growth	4 to 5 days, with: UVA 1.28 J/cm^2	–	22 µM
S=C([S][Au-][P+](CCCCCC[P+]([Au-][S]C(=S)n1cccn1)(c1ccccc1)c1ccccc1)(c1ccccc1)c1ccccc1)n1cccn1	PHA-P stimulated human PBMC	cell growth, MTT	3 d	–	6.68 ± 3.4 µM
COc1cccc(CNC2=NS(=O)(=O)c3cc(Br)ccc3N2)c1	MDA-MB-468	cell growth or viability, MTS	72 h	–	> 50 µM
O=C(Nc1nccs1)C(c1cc(F)ccc1O)N1Cc2ccccc2C1=O (centres unmarked)	BaF3	cell growth or viability, MTS	–	–	~10 µM
CC(=O)N1N=C(c2ccc(NC(=O)CN3CCN(c4ccc(Cl)cc4)CC3)cc2)CC1c1ccco1 (centres unmarked)	HCT-116, PC-3, MCF7, MDA-MB-231 average	MTT	–	–	32 µM
Cc1c(C)c(C)[c-](C)c1C.Fc1ccc(-c2[c-]cccc2)nc1.[Cl-].[Ir+3]	A2780 cells	cell growth, SRB	24 h exposure, 72 h recovery	–	> 60 µM and > 50 µM
CC(=O)Nc1ccc(O)cc1	ReNcell VM, differentiated astrocytic	cell viability, live/dead 3D alginate microarray	24 h exposure plus 48 h, 6 days differentiation	–	14100 µM
CC1(C)C2CC[C@]1(C)C(=O)/C2=C/c1cc2ccccc2o1	GES1	cell growth or viability, SRB	72 h	–	223 µM
Cc1c(I)c(=O)oc2c(C)c(O)ccc12	PAM212	cell growth	4 to 5 days, with: UVA 1.28 J/cm^2	–	61 µM
CC(=O)N1N=C(c2ccc(NC(=O)CN3CCN(c4ccc(Cl)cc4)CC3)cc2)CC1c1ccc(Cl)cc1Cl (centres unmarked)	HCT-116, PC-3, MCF7, MDA-MB-231 average	MTT	–	–	70 µM
C[C@]1([N+](=O)[O-])C(=O)c2ccccc2O[C@@H]1CC(=O)Nc1ccc2[nH]ccc2c1	DU-145	cell growth or viability, SRB	96 h	–	23.9 µM
O=C(CN1CCN(c2ccc(Cl)cc2)CC1)Nc1ccc(C(=O)C=Cc2ccccc2)cc1	HCT-116, PC-3, MCF7, MDA-MB-231 average	MTT	–	–	36 µM
CNC(=O)c1cc(Oc2ccc(NC(=O)Nc3ccc(Cl)c(C(F)(F)F)c3)cc2)ccn1	MHCC97H cells, NICD overexpressing	cell viability, MTT	concentration not given, with: pralatrexate 0.5	–	4.85 µM
Cc1cn([C@H]2C[C@H](N=[N+]=[N-])[C@@H](CO)O2)c(=O)[nH]c1=O	human monocyte-derived macrophages	cytotoxicity, MTT	48 h, 4 h pretreatment	–	500 µg/mL
O=C1C(=Cc2ccccc2)CN(C(=O)C=CC=CC(=O)N2CC(=Cc3ccccc3)C(=O)C(=Cc3ccccc3)C2)CC1=Cc1ccccc1	MOLT-4/C8 and CEM cells	cytotoxicity	–	–	32.2 µM
COc1cccc2c1C(=O)c1c(O)c3c(c(O)c1C2=O)C[C@@](O)(C(=O)CO)C[C@@H]3O[C@H]1C[C@H](N)[C@H](O)[C@H](C)O1	DU-145	cell growth or viability, MTT	48 h	–	~0.11 µM
CO[C@H]1/C=C\C=C(/C)C(=O)NC2=CC(=O)C(NCCN(C)C)=C(C[C@@H](C)C[C@H](OC)[C@H](O)[C@@H](C)/C=C(\C)[C@@H]1OC(N)=O)C2=O	dox-inducible reporter cells	Hsp70-CHIP interaction, NanoBiT luminescence	6 h	baseline: DMSO	0.0031 ± 0.0015 µM
Cc1ccc2nc(Cl)c(C=C3C(=O)Nc4ccccc43)cc2c1	A2780	cell growth or viability, MTT	72 h	–	> 100 µM
CC(C)=CCc1c(C)c2ccc(O)c(C)c2oc1=O	PAM212	cell growth	4 to 5 days, with: UVA 1.28 J/cm^2	–	12 µM
C=CCc1ccc(O)c(-c2ccc(O)c(CC=C)c2)c1	UACC-903	cell proliferation, MTS	72 h, with: 10 µM BLM	–	3.98 µM
O=C(CN1CCN(c2ccc(Cl)cc2)CC1)Nc1ccc(C(=O)C=Cc2ccc(Cl)cc2Cl)cc1	HCT-116, PC-3, MCF7, MDA-MB-231 average	MTT	–	–	41 µM
CN(C)C(=O)C[C@H]1Oc2ccccc2C(=O)[C@]1(C)[N+](=O)[O-]	DU-145	cell growth or viability, SRB	96 h	–	> 50 µM
O=C(O)c1ccc(-n2nc(-c3ccccc3O)nc2-c2ccccc2O)cc1	MRC5	cell growth, resazurin	72 h	–	≤ 220 µM
COc1ccc(N2CCN(CC(=O)Nc3ccc(C(=O)C=Cc4ccccc4)cc3)CC2)cc1	HCT-116, PC-3, MCF7, MDA-MB-231 average	MTT	–	–	70 µM
COc1ccc(CCNC2=NS(=O)(=O)c3cc(F)ccc3N2)cc1	MDA-MB-468	cell growth or viability, MTS	72 h	–	37.5 µM
CCCCc1nc2cc(/C=C/C(=O)NO)ccc2n1CCN(CC)CC	primary AML blasts	cell proliferation, CellTiter-Glo	48 h, highest individual patient value	–	2.2 µM
